Published values gathered from unrelated publications.
Lines come from different studies, so protocols differ.

CC[C@H](C)[C@H](NC(=O)[C@H](CCCNC(=N)N)NC(=O)[C@H](Cc1c[nH]c2ccccc12)NC(=O)[C@H](CCCNC(=N)N)NC(=O)[C@H](Cc1c[nH]c2ccccc12)NC(=O)[C@H](Cc1c[nH]c2ccccc12)NC(=O)[C@H](Cc1c[nH]c2ccccc12)NC(=O)[C@H](CCCNC(=N)N)NC(=O)[C@H](Cc1c[nH]c2ccccc12)NC(=O)[C@H](CCCNC(=N)N)NC(=O)CN)C(N)=O — MIC (Candida albicans; broth microdilution; 56452, RPMI 1640-MOPS; 48 h, 30 °C): 8 µM
CC1NC(=O)C(C(=O)NC(C(=O)NC2C(=O)N3C2SC(C)(C)C3C(=O)O)c2ccccc2)=C1O (centres unmarked) — MIC (Escherichia coli; broth microdilution; Keio mutant JW2142-1): 100 µg/mL
O=c1ccc2nc3ccc(O)cc3oc-2c1 — MIC (Stenotrophomonas maltophilia; 24 h): > 32 µg/mL
Clc1ccc(COc2cccc(CNCc3ccccc3)c2)cc1 — MIC (nontuberculous mycobacteria; range over strains): 7.8 to 31.3 µM
CC[C@H](C)[C@H](NC(=O)[C@@H]1CCCN1C(=O)[C@H](CC(N)=O)NC(=O)[C@H](CC(N)=O)NC(=O)[C@H](CC(C)C)NC(=O)CNC(=O)[C@@H]1CCCN1C(=O)[C@H](CC(C)C)NC(=O)[C@H](CCCNC(=N)N)NC(=O)[C@@H]1CCCN1C(=O)[C@H](CCCNC(=N)N)NC(=O)CNC(=O)[C@@H]1CCCN1C(=O)[C@@H]1CCCN1C(=O)[C@H](CCCNC(=N)N)NC(=O)CNC(=O)[C@H](CCCNC(=N)N)NC(=O)[C@H](CO)NC(=O)[C@H](CCCNC(=N)N)NC(=O)CNC(=O)[C@H](CCCNC(=N)N)NC(=O)[C@H](CO)NC(=O)[C@H](CCCNC(=N)N)NC(=O)CNC(=O)[C@H](C)NC(=O)[C@H](CCCNC(=N)N)NC(=O)[C@@H](N)CCCNC(=N)N)C(=O)N[C@@H](C)C(=O)NCC(=O)N[C@H](C(=O)N1CCC[C@H]1C(=O)NCC(=O)N[C@@H](CCCNC(=N)N)C(=O)N[C@@H](CCCCN)C(=O)O)[C@@H](C)CC — MIC (Gram-positive and Gram-negative bacteria; range over ten strains): > 50 µM
CS(=O)(=O)N1CCN(Cc2cc3nc(-c4cccc5[nH]ncc45)nc(N4CCOCC4)c3s2)CC1 — maximum inhibition (human coronavirus OC43; virus-induced cell killing; MRC-5; maximum over 10 doses): 0%
CC[C@H](C)[C@H](NC(=O)[C@H](C)NC(=O)[C@H](CCCCN)NC(=O)[C@H](CC(C)C)NC(=O)[C@H](C)NC(=O)[C@@H](NC(=O)[C@H](Cc1c[nH]cn1)NC(=O)[C@H](CC(C)C)NC(=O)[C@@H](NC(=O)[C@@H](NC(=O)[C@H](CCCCN)NC(=O)[C@H](C)NC(=O)[C@H](C)NC(=O)[C@H](CO)NC(=O)[C@H](CCCCN)NC(=O)[C@H](Cc1ccccc1)NC(=O)[C@@H](NC(=O)[C@H](CCCCN)NC(=O)[C@H](CC(C)C)NC(=O)[C@H](Cc1ccccc1)NC(=O)[C@H](CO)NC(=O)[C@H](CCCCN)NC(=O)[C@H](Cc1c[nH]c2ccccc12)NC(=O)[C@H](CCCCN)NC(C)=O)[C@@H](C)O)[C@@H](C)O)C(C)C)[C@@H](C)O)C(=O)N[C@@H](CO)C(=O)N[C@@H](CO)C(N)=O — MIC (Klebsiella pneumoniae; non-ESBL; geometric mean of 40 strains): 5.96 µg/mL
CC1(C)S[C@@H]2[C@H](NC(=O)[C@H](N)c3ccccc3)C(=O)N2[C@H]1C(=O)O — MIC (Escherichia coli; broth microdilution; isolate IU, CTX-M-14, TEM-1; together with: clavulanic acid 6 µg/mL): 200 µg/mL
N=C(N)NCCC[C@H](NC(=O)[C@H](Cc1c[nH]c2ccccc12)NC(=O)[C@H](CCCNC(=N)N)NC(=O)[C@H](Cc1c[nH]c2ccccc12)NC(=O)[C@H](Cc1c[nH]c2ccccc12)NC(=O)[C@H](Cc1c[nH]c2ccccc12)NC(=O)[C@H](CCCNC(=N)N)NC(=O)[C@H](Cc1c[nH]c2ccccc12)NC(=O)[C@@H](N)CCCNC(=N)N)C(=O)N[C@@H](Cc1c[nH]c2ccccc12)C(N)=O — MIC (Candida albicans; broth microdilution; CGMCC 2.209, RPMI 1640-MOPS; 48 h, 30 °C, together with: NaCl 150 mM): 32 µM
CC[C@H](C)[C@H](NC(=O)[C@H](Cc1c[nH]c2ccccc12)NC(=O)[C@@H](NC(=O)[C@@H](NC(=O)[C@@H](NC(=O)[C@H](CCCNC(=N)N)NC(=O)[C@@H](N)CCCNC(=N)N)[C@@H](C)CC)[C@@H](C)O)[C@@H](C)CC)C(=O)N[C@H](C(=O)N[C@H](C(=O)N[C@@H](CCCNC(=N)N)C(=O)N[C@@H](CCCNC(=N)N)C(N)=O)[C@@H](C)CC)[C@@H](C)O — MIC (Lacticaseibacillus rhamnosus; 1.038, probiotic strain; 24 h, 37 °C, tested up to 128 µM): 2 µM
CC(C)C[C@H](NC(=O)[C@H](CCCNC(=N)N)NC(=O)[C@H](Cc1c[nH]c2ccccc12)NC(=O)[C@H](CCCNC(=N)N)NC(=O)[C@H](Cc1c[nH]c2ccccc12)NC(=O)[C@H](Cc1c[nH]c2ccccc12)NC(=O)[C@H](Cc1c[nH]c2ccccc12)NC(=O)[C@H](CCCNC(=N)N)NC(=O)[C@H](Cc1c[nH]c2ccccc12)NC(=O)[C@H](CCCNC(=N)N)NC(=O)CN)C(N)=O — MIC (Candida albicans; broth microdilution; CGMCC 2.209, RPMI 1640-MOPS; 48 h, 30 °C, together with: FeCl3 4 µM): 32 µM
CC1(C)SC2C(NC(=O)C(NC(=O)C3=C(O)C(Cc4ccccc4)NC3=O)c3ccccc3)C(=O)N2C1C(=O)O (centres unmarked) — MIC (Escherichia coli; broth microdilution; isolate IU 356 A, KPC-3, VIM-1, TEM; no clavulanic acid): > 200 µg/mL
N=C(N)NCCC[C@H](NC(=O)CCCCCNC(=O)[C@H](CCCNC(=N)N)NC(=O)[C@H](CCCNC(=N)N)NC(=O)CCCCCNC(=O)[C@H](CCCNC(=N)N)NC(=O)[C@H](CCCNC(=N)N)NC(=O)CCCCCNC(=O)[C@H](CCCNC(=N)N)NC(=O)[C@H](CCCNC(=N)N)NC(=O)CCCCCNC(=O)[C@@H](N)CCCNC(=N)N)C(=O)NCCCCCC(=O)NCCC(=O)O — MIC (Escherichia coli; broth microdilution; ATCC 25922, Mueller-Hinton broth; 16 to 18 h, 37 °C): 96 µM
Nc1nccc(Oc2ccc(NC(=O)c3c[nH]cc(-c4ccc(F)cc4)c3=O)cc2F)c1Cl — maximum inhibition (human coronavirus OC43; virus-induced cell killing; MRC-5; screen): 4.52%
CC(C)CC1NC(=O)C(C(=O)NC(C(=O)NC2C(=O)N3C2SC(C)(C)C3C(=O)O)c2ccccc2)=C1O (centres unmarked) — MIC (Escherichia coli; broth microdilution; Keio mutant JW5195-1; 18 h): 50 µg/mL
OC(Cn1cncn1)(Cn1cncn1)c1ccc(F)cc1F — MIC (Nakaseomyces glabratus; azole-resistant, RPMI 1640; 24 h, 35 °C): 100 µM
N=C(N)NCCC[C@H](NC(=O)[C@H](Cc1c[nH]c2ccccc12)NC(=O)[C@H](CCCNC(=N)N)NC(=O)[C@H](Cc1c[nH]c2ccccc12)NC(=O)[C@H](Cc1c[nH]c2ccccc12)NC(=O)[C@H](Cc1c[nH]c2ccccc12)NC(=O)[C@H](CCCNC(=N)N)NC(=O)[C@H](Cc1c[nH]c2ccccc12)NC(=O)[C@@H](N)CCCNC(=N)N)C(=O)N[C@@H](Cc1ccccc1)C(N)=O — MIC (Candida albicans; broth microdilution; 17546, RPMI 1640-MOPS; 48 h, 30 °C): 8 µM
C#CCOc1ccc2oc(-c3ccc(OC)cc3)c(C(=O)OCC)c2c1CN1CCCCC1 — MIC (Mycobacterium smegmatis; mc2 155): 13 µM
C[C@H](NC(=O)[C@H](CCCNC(=N)N)NC(=O)[C@H](Cc1c[nH]c2ccccc12)NC(=O)[C@H](CCCNC(=N)N)NC(=O)[C@H](Cc1c[nH]c2ccccc12)NC(=O)[C@H](Cc1c[nH]c2ccccc12)NC(=O)[C@H](Cc1c[nH]c2ccccc12)NC(=O)[C@H](CCCNC(=N)N)NC(=O)[C@H](Cc1c[nH]c2ccccc12)NC(=O)[C@H](CCCNC(=N)N)NC(=O)CN)C(N)=O — MIC (Candida albicans; broth microdilution; alveolar fluid isolate, RPMI 1640-MOPS; 48 h, 30 °C): 16 µM
CC1(C)SC2C(NC(=O)C(NC(=O)C3=C(O)CNC3=O)c3ccccc3)C(=O)N2C1C(=O)O (centres unmarked) — MIC (Escherichia coli; broth microdilution; Keio mutant JW2142-1): 50 µg/mL

Repeated from above:
Nc1nccc(Oc2ccc(NC(=O)c3c[nH]cc(-c4ccc(F)cc4)c3=O)cc2F)c1Cl — maximum inhibition (human coronavirus OC43; virus-induced cell killing; MRC-5; screen): 4.52%
CC(C)CC1NC(=O)C(C(=O)NC(C(=O)NC2C(=O)N3C2SC(C)(C)C3C(=O)O)c2ccccc2)=C1O (centres unmarked) — MIC (Escherichia coli; broth microdilution; Keio mutant JW5195-1; 18 h): 50 µg/mL
OC(Cn1cncn1)(Cn1cncn1)c1ccc(F)cc1F — MIC (Nakaseomyces glabratus; azole-resistant, RPMI 1640; 24 h, 35 °C): 100 µM
